Experimental data collected from several papers.
Numbered parts are unrelated; each lists some results of a single study. Positions count from the first letter of the parent shown.

Series 1
Target: CCNE2, cyclin fold, Cln2 fusion (human)
Method: yeast growth competition, sequencing
Sample: yeast
Notes: strong parent motif
Reference: not given
Reading: higher = stronger binding
Parent: BRCA2 docking peptide (human); PSIKRNLLNEFDR; partner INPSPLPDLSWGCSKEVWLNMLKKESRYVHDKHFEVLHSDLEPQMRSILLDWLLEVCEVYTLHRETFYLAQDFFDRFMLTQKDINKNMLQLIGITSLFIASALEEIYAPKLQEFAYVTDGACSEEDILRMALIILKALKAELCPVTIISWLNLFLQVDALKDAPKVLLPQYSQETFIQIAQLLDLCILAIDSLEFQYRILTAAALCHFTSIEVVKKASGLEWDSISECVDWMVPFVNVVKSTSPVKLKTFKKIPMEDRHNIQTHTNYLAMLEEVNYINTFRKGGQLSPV
Change	normalised enrichment score
N6Y	0.39
P1F	1.78
D12F	1.44
R5I	-0.132
D12S	2.41
K4R	1.35

Series 2
Target: Histone acetyltransferase KAT6A, both winged helices, GST fusion (KAT6A, Homo sapiens, UniProt Q92794, residues 1-181)
Method: protein binding microarray
Form: double-stranded DNA, one strand shown
Sample: in vitro
Tested at: not given
Notes: 8-mer, flanks averaged, mean of 2 arrays, mostly near background
Reference: not given
Reading: higher = stronger binding
Construct (chain): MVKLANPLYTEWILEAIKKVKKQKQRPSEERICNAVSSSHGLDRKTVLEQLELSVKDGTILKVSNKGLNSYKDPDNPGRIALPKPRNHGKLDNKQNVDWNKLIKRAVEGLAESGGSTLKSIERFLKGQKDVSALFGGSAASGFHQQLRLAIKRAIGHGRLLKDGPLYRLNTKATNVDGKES
Sequence	E-score
ATTCGCTA	-0.000225
CGACTTCA	0.114
CATTACAG	-0.0552
AGATATGC	-0.00239
ACAGTTGA	-0.0835
CACGACAG	-0.0251
CCACTAAG	-0.167
CATCTATA	0.0278

Series 3
Target: Phosphate system positive regulatory protein PHO4, full length, GST-tagged (PHO4, Saccharomyces cerevisiae, UniProt P07270, residues 1-312)
Method: competition protein-binding microarray
Form: double-stranded DNA, one strand shown
Sample: in vitro
Tested at: 2 µM
Notes: whole 60-bp probe, lowest competitor level
With: Cbf1 competitor, 0.05 µM
Reading: higher = stronger binding
Shared flanks, not repeated: … GTCTTGATTCGCTTGACGCTGCTG
Construct (chain): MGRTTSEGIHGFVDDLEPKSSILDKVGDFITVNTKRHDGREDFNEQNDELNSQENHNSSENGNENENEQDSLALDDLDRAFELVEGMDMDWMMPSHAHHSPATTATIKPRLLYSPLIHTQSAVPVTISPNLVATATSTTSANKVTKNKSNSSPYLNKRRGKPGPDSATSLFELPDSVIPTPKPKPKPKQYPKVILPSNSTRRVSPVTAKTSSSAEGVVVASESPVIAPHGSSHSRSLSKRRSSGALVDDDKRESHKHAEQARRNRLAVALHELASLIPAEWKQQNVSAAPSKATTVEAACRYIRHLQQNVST
Sequence	fluorescence intensity [a.u.]
TGTGTTAGAATACACAGCGTGCCGAGTTCCTGGTGC	8440
GTCTTGTCTCATTGAGCGGTGGGTGTCCCCACTTCA	4910
CCTGCCCTCACCATACAAAACAACCGTTTATAGATA	3980
TTGTTTCATCCAGGGTACGTGGCCGCACTTGTCAAT	8440
ATATACTCTTTGGTGCACATGCAGGGATGGTTCCGG	9950
CATACCCAACCTTGAACCGTGGGTGAAGATATTTGT	7110

Further values, each from its own experiment
Molecule	target	assay	system	setting	scale	endpoint	result
PhoQ, residues 284 288 289 292 302 303 TNSAEL	PhoP, residues 12 14 15 18 19 SQCLL (Escherichia coli, UniProt P23836)	Sort-seq, measured: YFP reporter	E. coli	PhoQ-PhoP variant library, with: 10 µM Mg2+	reference: high Mg2+ state, higher = stronger signaling	fold induction	16.9
